Measurements gathered from unrelated publications.
Each line is one published result; not all experiments were run side by side. ± marks the error that the study gave.
Method: steady-state kinetics
B1: YjiA C66A/C67A/E37A (Escherichia coli, UniProt P24203); chain MNPIAVTLLTGFLGAGKTTLLRHILNEQHGYKIAVIANEFGEVSVDDQLIGDRATQIKTLTNGCIAASRSNELEDALLDLLDNLDKGNIQFDRLVIECTGMADPGPIIQTFFSHEVLCQRYLLDGVIALVDAVHADEQMNQFTIAQSQVGYADRILLTKTDVAGEAEKLHERLARINARAPVYTVTHGDIDLGLLFNTNGFMLEENVVSTKPRFHFIADKQNDISSIVVELDYPVDISEVSRVMENLLLESADKLLRYKGMLWIDGEPNRLLFQGVQRLYSADWDRPWGDEKPHSTMVFIGIQLPEEEIRAAFAGLRK
B2: enzyme N249W (Thermobifida fusca, UniProt Q47RK4); chain MTDVYILDAVRTPFGRYGGALSGIRPDDLAAHVLRALAERSPGLDPAAVDDVFFGDANGAGEDNRNVARMAALLAGWPTSVPGVTLNRLCGSGMESVIAANRAIAVGDASLAVAGGVESMSRAPWVLPKPAQGFPTGHETLYSTTLGWRMVNPAMPEQWTVSLGESTEQVAATYGISRAEQDAFALRSHERAARAWAEGVFDAEITQIPGAELERDESIRETSAEKLAALKPAFRPDGTITAGNASPLWDGAAALLIGDAAAAERVGREPLARIVSRGVAAVDPDVFGIGPVQAAEIALRRAGIGWDDLSVVELNEAFAAQSLACLKLWPDLDPEIVNPNGGAIAIGHPLGASGARIVGTLAHELHRRGGGWGLAAICIGVGQGLAVVLHR
B3: enzyme (Allochromatium vinosum, UniProt P45370); chain MFPIDIRPDKLTQEMLDYSRKLGQGMENLLNAEAIDTGVSPKQAVYSEDKLVLYRYDRPEGAPEAQPVPLLIVYALVNRPYMTDIQEDRSTIKGLLATGQDVYLIDWGYPDQADRALTLDDYINGYIDRCVDYLREAHGVDKVNLLGICQGGAFSLMYSALHPDKVRNLVTMVTPVDFKTPDNLLSAWVQNVDIDLAVDTMGNIPGELLNWTFLSLKPFSLTGQKYVNMVDLLDDPDKVKNFLRMEKWIFDSPDQAGETFRQFIKDFYQNNGFLNGGVVLGGQEVDLKDITCPVLNIFALQDHLVPPDASRALKGLTSSPDYTELAFPGGHIGIYVSGKAQKEVTPAIGKWLNER
B4: TcC (Trypanosoma cruzi, UniProt Q4DGA3); chain MPREYEFAEKILFTEEEIRTRIMEVAKRIADDYKGKGLRPYVNPLVLISVLKGSFMFTADLCRALSDFNVPVRMEFICVSSYGEGVTSSGQVRMLLDTRHSIEGHHVLIVEDIVDTALTLNYLYHMYFTRRPASLKTVVLLDKREGRRVPFSADYVVANIPNAFVIGYGLDYDDTYRELRDIVVLRPEVYAEREAARQKKQRAIGSADTDRDAKREFHSKY
B5: UGT84B1 (Arabidopsis thaliana, UniProt O22182); chain MGSSEGQETHVLMVTLPFQGHINPMLKLAKHLSLSSKNLHINLATIESARDLLSTVEKPRYPVDLVFFSDGLPKEDPKAPETLLKSLNKVGAMNLSKIIEEKRYSCIISSPFTPWVPAVAASHNISCAILWIQACGAYSVYYRYYMKTNSFPDLEDLNQTVELPALPLLEVRDLPSFMLPSGGAHFYNLMAEFADCLRYVKWVLVNSFYELESEIIESMADLKPVIPIGPLVSPFLLGDGEEETLDGKNLDFCKSDDCCMEWLDKQARSSVVYISFGSMLETLENQVETIAKALKNRGLPFLWVIRPKEKAQNVAVLQEMVKEGQGVVLEWSPQEKILSHEAISCFVTHCGWNSTMETVVAGVPVVAYPSWTDQPIDARLLVDVFGIGVRMRNDSVDGELKVEEVERCIEAVTEGPAAVDIRRRAAELKRVARLALAPGGSSTRNLDLFISDITIA
B6: protein (Rhodopseudomonas palustris, UniProt Q6N3R9); chain MSNVRVLATDLAFPEGPVVMPDGSVVLVEIRAQQLTRVWPDGRKEVVAKVPGGPNGAALGPDGKMYICNNGGFGWFPSRGTMMPGAPAPHEYIGGSIQRVDLQSGEVETLFDKCGEHPLKGPNDLVFDKHGGLWFTDLGKRRARDMDVGAAYYIKPGMTEITEQVFGTLPLNGIGLSPDEATMYAAETPTGRLWAFDLSGPGEVKPRDVIYRGEKGKPICGLGGYQMFDSLAVEASGNVCVATLVSGCISVIAPDGTLVEQVPTGDRVTTNIAFGGPDLKTAYITLSGKGELIAMDWSRPGLPLNFLNK
B7: Lxyl-p1-1 A72T/V91S (Lentinula edodes, UniProt G8GLN9); chain YFSGLGLGSERSIFRRDLNSTGDESNSTQWPAPLANGGKSWASAFKKAKSTVTEMTVEELANITSGVIGLCSGVTGAVTRLGIPELCLQDGPIGPRGVHGSSQFPAGLTVAATWDRTLMYARARGMGQEFHDQGVHIALAPVTGGPLGRTPLNGRGWEGTFADPYACGEASYQSVKGLTDAGVATVSKHWIAYEQETSRNLYIEFDGVSQADIQLPISSNVDDLTMHELYMWSFAEAVRAGTNHIMCSYNRINNTHSCNNAKGLNQLLKTELNFQGGVVSDWGGQWDSVLSAENGLDVGMPGEGFLGELGDFWGTTLADLINNGTVSEDLVRDKVVRLLTGYYYLGQDINPPPPFVYNTIGAPTLNATSGYRNVRKPGTAELIKEIGSASVTLLKNTGSLPLKHPQRIAVLGNDATYNVLGPNACGLANSACDIDNLNGTLTTGGGSGSALSPYTITPLEALQKRAIEDNAEIAAVVANSNTTTGAEDAIAALLPDADVTFVFLNRYSEEGADAPDFSLGGDGDNLMDLAVTYSSNVVVVIHTTGVVDIEKWADNPNVTAILVAYLPGQEAGNSLVPVLYGDVAPSGKLPWTWGKSIDDYVPNGVVYTDAYSPQSNFTEGVFIDYRWFDKMGITPRYEFGFGLSYTTFTYSNLIVDHGRWAKDYSSVMETAEPFAEWDGTNSLYDVIFTVFATITNTGNLTGSEVAQLYISIPGDNQPVRQLRGFDKIKDLPVGDSAVVTFPIRRKDVSSWSVVDQLWYVPNGDFLISVGGSSRDLPLNTTWTP
B8: enzyme E217L/L163H/N249W (Thermobifida fusca, UniProt Q47RK4); chain MTDVYILDAVRTPFGRYGGALSGIRPDDLAAHVLRALAERSPGLDPAAVDDVFFGDANGAGEDNRNVARMAALLAGWPTSVPGVTLNRLCGSGMESVIAANRAIAVGDASLAVAGGVESMSRAPWVLPKPAQGFPTGHETLYSTTLGWRMVNPAMPEQWTVSHGESTEQVAATYGISRAEQDAFALRSHERAARAWAEGVFDAEITQIPGAELERDLSIRETSAEKLAALKPAFRPDGTITAGNASPLWDGAAALLIGDAAAAERVGREPLARIVSRGVAAVDPDVFGIGPVQAAEIALRRAGIGWDDLSVVELNEAFAAQSLACLKLWPDLDPEIVNPNGGAIAIGHPLGASGARIVGTLAHELHRRGGGWGLAAICIGVGQGLAVVLHR
B9: STH1425 H227V (Symbiobacterium thermophilum, UniProt Q67PI3); chain MDKLRVAVVGYGNVGRYALEAVQAAPDMELVGVVRRKVLAATPPELTGVRVVTDISQLEGVQGALLCVPTRSVPEYAEAMLRRGIHTVDSYDIHGDLADLRRRLDPVAREHGAAAVISAGWDPGTDSIIRALLEFMAPKGITYTNFGPGMSMGHSVAVKAIPGVRDALSMTIPAGMGVHKRAVYVELEPGADFAEVERAIKTDPYFVRDETRVTQVESVSALMDVGVGVVMERKGVSGATHNQLFRFEMRINNPALTAQVMVAALRAAARQKPGCYTMIEIPVIDYLPGDREAWIRKLV
UniProt P33378, sequence (whole entry, looked up): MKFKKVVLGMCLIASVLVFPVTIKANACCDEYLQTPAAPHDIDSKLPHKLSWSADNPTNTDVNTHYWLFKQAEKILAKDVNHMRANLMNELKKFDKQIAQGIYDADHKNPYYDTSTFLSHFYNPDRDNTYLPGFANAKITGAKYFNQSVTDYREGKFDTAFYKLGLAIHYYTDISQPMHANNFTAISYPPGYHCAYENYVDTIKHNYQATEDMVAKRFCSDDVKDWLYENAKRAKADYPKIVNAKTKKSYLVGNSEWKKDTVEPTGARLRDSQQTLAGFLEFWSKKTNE
UniProt Q6XEC0, sequence (whole entry, looked up): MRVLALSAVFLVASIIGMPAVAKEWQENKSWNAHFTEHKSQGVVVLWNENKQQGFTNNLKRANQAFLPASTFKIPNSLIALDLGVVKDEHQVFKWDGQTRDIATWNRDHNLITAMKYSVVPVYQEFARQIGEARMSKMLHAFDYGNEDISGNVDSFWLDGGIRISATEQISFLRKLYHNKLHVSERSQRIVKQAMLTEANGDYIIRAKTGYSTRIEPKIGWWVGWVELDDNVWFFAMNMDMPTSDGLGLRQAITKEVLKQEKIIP

| Substance | substrate | conditions | kcat/Km |
| --- | --- | --- | --- |
| B1 (YjiA C66A/C67A/E37A) | Nc1nc2c(ncn2[C@@H]2O[C@H](COP(=O)(O)OP(=O)(O)OP(=O)(O)O)[C@@H](O)[C@H]2O)c(=O)[nH]1 | pH 7.6, 37 °C, apo, anaerobic, added: MgCl2 5 mM | 6 ± 3 M⁻¹ s⁻¹ |
| B2 (enzyme N249W) | CC(C)(COP(=O)(O)OP(=O)(O)OC[C@H]1O[C@@H](n2cnc3c(N)ncnc32)[C@H](O)[C@@H]1OP(=O)(O)O)[C@@H](O)C(=O)NCCC(=O)NCCSC(=O)CCCC(=O)O | pH 7.4, 37 °C | 1.5 M⁻¹ s⁻¹ |
| Cj1427c (Campylobacter jejuni, UniProt Q0P8I7) | Nc1nc2c(ncn2[C@@H]2O[C@H](COP(=O)(O)OP(=O)(O)O[C@H]3O[C@H]([C@H](O)CO)[C@@H](O)[C@H](O)[C@@H]3O)[C@@H](O)[C@H]2O)c(=O)[nH]1 | pH 7.4, 30 °C, apparent | 10200 ± 800 M⁻¹ s⁻¹ |
| OXA-48 (Klebsiella pneumoniae, UniProt Q6XEC0) | C[C@@H](O)[C@H]1C(=O)N2C(C(=O)O)=C(S[C@@H]3CN[C@H](C(=O)N(C)C)C3)[C@H](C)[C@H]12 | pH 7.2, 30 °C | 17000 M⁻¹ s⁻¹ |
| MilB F17Y (Streptomyces rimofaciens) | Nc1ccn([C@@H]2O[C@H](COP(=O)(O)O)[C@@H](O)[C@H]2O)c(=O)n1 | pH 7.5, 37 °C | 0.046 M⁻¹ s⁻¹ |
| plcB (Listeria monocytogenes, UniProt P33378) | CCCC(=O)OC[C@H](COP(=O)([O-])OCC[N+](C)(C)C)OC(=O)CCC | pH 6, 37 °C | 180 ± 20 M⁻¹ s⁻¹ |
| enzyme (Paenarthrobacter nicotinovorans, UniProt P08159) | CN1CCC[C@@H]1c1ccc(O)nc1 | pH 8, 25 °C | 380000 ± 52000 M⁻¹ s⁻¹ |
| B3 (enzyme) | CC(C)(COP(=O)(O)OP(=O)(O)OC[C@H]1O[C@@H](n2cnc3c(N)ncnc32)[C@H](O)[C@@H]1OP(=O)(O)O)[C@@H](O)C(=O)NCCC(=O)NCCSC(=O)C[C@H](O)CN=[N+]=[N-] | pH 7.8, 30 °C | 286000 M⁻¹ s⁻¹ |
| B4 (TcC) | Oc1ncnc2[nH]ncc12 | pH 8.3, 37 °C, apparent, added: PRPP 1 mM, MgCl2 12 mM | 8000 ± 2000 M⁻¹ s⁻¹ |
| B5 (UGT84B1) | O=C(O)Cc1ccccc1 | pH 7.5, 30 °C | 450 ± 10 M⁻¹ s⁻¹ |
| B6 (protein) | CCCCCCCCOC(C)=O | pH 8.3, NaCl 150 mM, no saturation, added: CaCl2 1 mM | 134 M⁻¹ s⁻¹ |
| B7 (Lxyl-p1-1 A72T/V91S) | [H][C@]12[C@H](OC(=O)c3ccccc3)[C@]3(O)C[C@H](OC(=O)[C@H](O)[C@@H](NC(=O)c4ccccc4)c4ccccc4)C(C)=C([C@@H](O)C(=O)[C@]1(C)[C@@H](O[C@@H]1OC[C@@H](O)[C@H](O)[C@H]1O)C[C@@]1([H])OC[C@@]21OC(C)=O)C3(C)C |  | 11200 ± 560 M⁻¹ s⁻¹ |
| B8 (enzyme E217L/L163H/N249W) | CC(C)(COP(=O)(O)OP(=O)(O)OC[C@H]1O[C@@H](n2cnc3c(N)ncnc32)[C@H](O)[C@@H]1OP(=O)(O)O)[C@@H](O)C(=O)NCCC(=O)NCCSC(=O)CCCC(=O)O | pH 7.4, 37 °C | 2.33 M⁻¹ s⁻¹ |
| B9 (STH1425 H227V) | O=C(O)C(=O)Cc1ccccc1 | pH 9, 30 °C, reductive amination, added: NH4Cl 200 mM, NADPH 0.5 mM | 91 ± 3 M⁻¹ s⁻¹ |

For quick reference, copied from above:
| Substance | substrate | conditions | kcat/Km |
| --- | --- | --- | --- |
| B8 (enzyme E217L/L163H/N249W) | CC(C)(COP(=O)(O)OP(=O)(O)OC[C@H]1O[C@@H](n2cnc3c(N)ncnc32)[C@H](O)[C@@H]1OP(=O)(O)O)[C@@H](O)C(=O)NCCC(=O)NCCSC(=O)CCCC(=O)O | pH 7.4, 37 °C | 2.33 M⁻¹ s⁻¹ |
| B9 (STH1425 H227V) | O=C(O)C(=O)Cc1ccccc1 | pH 9, 30 °C, reductive amination, added: NH4Cl 200 mM, NADPH 0.5 mM | 91 ± 3 M⁻¹ s⁻¹ |
